Published values from different studies.
Numbered parts are unrelated; each lists some results of a single study.

Set 1
Target: Ras GTPase-activating protein-binding protein 1, full length (G3BP1, Homo sapiens, UniProt Q13283)
UniProt Q13283, sequence (whole entry, looked up): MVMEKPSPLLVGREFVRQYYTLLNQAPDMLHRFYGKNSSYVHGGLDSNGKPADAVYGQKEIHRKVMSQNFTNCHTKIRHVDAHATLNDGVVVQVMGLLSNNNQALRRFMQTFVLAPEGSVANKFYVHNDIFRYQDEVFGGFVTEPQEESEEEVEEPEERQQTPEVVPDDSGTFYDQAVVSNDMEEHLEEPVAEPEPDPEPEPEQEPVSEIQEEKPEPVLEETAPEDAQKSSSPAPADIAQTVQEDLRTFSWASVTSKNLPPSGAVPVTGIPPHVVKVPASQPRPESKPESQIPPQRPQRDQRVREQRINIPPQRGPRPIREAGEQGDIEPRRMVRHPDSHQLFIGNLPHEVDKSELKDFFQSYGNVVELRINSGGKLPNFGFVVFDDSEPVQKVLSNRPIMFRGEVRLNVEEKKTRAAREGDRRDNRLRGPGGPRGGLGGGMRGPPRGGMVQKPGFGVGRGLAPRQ
Method: RNA Bind-n-Seq
Form: RNA
Medium: in vitro
Tested at: 200 nM
Notes: whole 134-nt RNA, ends assumed
Added: 150 mM KCl
Baseline: input library
Direction: higher = stronger binding
All sequences stand within: GGGAGUUCUACAGUCCGACGAUC … UGGAAUUCUCGGGUGUCAAGG
Sequence	log2 enrichment
UCAAGUCCUGUGCUACACAUCGUAUGUACCGAAUCGGGUUUGGGAAAGGGUGGGAAAGUAUUAUGUUACGCCGUUCGGAUCUGCACUUCC	1.16
UGGGAGGUGGAUUUUGUUUAUUUUUUUAGCUCAUUUCCAGGGGUGGGAAUUUUUUUUUAAUAUGUGUCCUGAAUAAAGUUGUUUUUGAAA	0.139
UCCUGUGCUACACAUCGUAUGUACCGAAUCGGGAAAAAAAGGGUUUUUGGGUUUUUGGGAAAGUAUUAUGUUACGCCGUUCGGAUCUGCA	-0.577
UGGGAGGUGGAUUUUGUUUAUUUUUUUAGCUCAUUUCCAGGGGUGGGAAUUUUUUUUUAAUAUGUGUCAUGAAUAAAGUUGUUUUUGAUA	0.231
UGGCAGGUGGAUUUUGUUUAUUUUUUUAGCUCAUUUCCAGGGGUGGGAAUUUUUUUUUAAUAUGUGUCAUGAAUAAAGUUGUUUUUGAAA	-0.17
AAGUCCUGUGCUACACAUCGUAUGUACCGAAUCGGGGAAAAGGGAAAAGGAAAAGGGAAAGUAUUAUGUUACGCCGUUCGGAUCUGCACU	-0.541
CUUUGGUUGACAGGAAGUUCCUUUUCCAGGCAGGUCCCGUUGCCACCUCCUGCUCACUCAGUCCCGGGCUCUGCCGAGUGGUCCUGGGAA	0.497
UAACUUUAGAGGAGGAUCUGAUGGAUAUGGCAGUGGACGUGGAUUUGGGGAUGGCUAUAAUGGGUAUGGAGGGGGACCUGGAGGUGGCAA	0.738
CCUCAAGUCCUGUGCUACACAUCGUAUGUACCGAAUCGGGAGGGAGGGAGGGAAAGUAUUAUGUUACGCCGUUCGGAUCUGCACUUCCAG	1.47
UCAAGUCCUGUGCUACACAUCGUAUGUACCGAAUCGGGGUUGGGGUUGGGUUGGAAAGUAUUAUGUUACGCCGUUCGGAUCUGCACUUCC	0.16
UUUGAGGUCAAACGCCGCGGGGAACUGCAGCUGAUUAAGAUCUUCCAAUCCUCGGUGUUUGAGGCCUUCCUCAAGGGCAGCACGCUGGAA	-1.86
UCCUGUGCUACACAUCGUAUGUACCGAAUCGGUUUUUUGGGGUUUUUUGGGGUUUUUUGGAAAGUAUUAUGUUACGCCGUUCGGAUCUGC	-0.288
CUGUGCUACACAUCGUAUGUACCGAAUCGGGGAAAAAGGGGAAAAAGGGGAAAAAAAGGGGAAAGUAUUAUGUUACGCCGUUCGGAUCUG	-0.212
UGUUCUGCAGAGGGGCGGUGUCAUUACUGAUGAAGAGGAAACCUCUAAGAAGAUAGCUGACCAGUUGGACAACAUUGUGGACAUGCGCGA	-1.58

Set 2
Target: Histone acetyltransferase KAT6A, both winged helices, GST fusion (KAT6A, Homo sapiens, UniProt Q92794, residues 1-181)
Method: protein binding microarray
Form: double-stranded DNA, one strand shown
Medium: in vitro
Tested at: not given
Notes: 8-mer, flanks averaged, mean of 2 arrays, mostly near background
Baseline: not given
Direction: higher = stronger binding
Construct (chain): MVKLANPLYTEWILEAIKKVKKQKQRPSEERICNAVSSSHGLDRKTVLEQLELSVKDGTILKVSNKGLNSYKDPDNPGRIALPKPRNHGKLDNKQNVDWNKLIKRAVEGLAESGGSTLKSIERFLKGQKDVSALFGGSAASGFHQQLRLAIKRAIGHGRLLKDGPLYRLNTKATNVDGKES
Sequence	E-score
CAGAGGAG	-0.237
AGGGATTG	-0.116
AGTGTGAA	-0.148
AGAGCATA	-0.128
ACGGTAAA	0.18
ACGGAGGC	0.183
TAGAGTAA	-0.0863
CTCGTCTA	-0.171
CCACTTCC	-0.0861
CAATGCGC	0.329
GACTAAAA	-0.0619
AAAGAACG	0.117
CTATCGCA	0.00067
ACTCAGCG	0.103
CGCATCAG	0.179
CGAACGTC	0.0174

Set 3
Target: RNA binding protein fox-1 homolog 2, RRM domain, GST-SBP tag (RBFOX2, Homo sapiens, UniProt O43251-10, residues 100-194)
Method: RNA Bind-n-Seq
Form: RNA
Medium: in vitro
Tested at: 365 nM
Notes: natural RNA segment, single round, ends assumed
Baseline: no-protein control
Direction: higher = stronger binding
All sequences stand within: GGGAGUUCUACAGUCCGACGAUC … UGGAAUUCUCGGGUGCCAA
Target sequence (chain): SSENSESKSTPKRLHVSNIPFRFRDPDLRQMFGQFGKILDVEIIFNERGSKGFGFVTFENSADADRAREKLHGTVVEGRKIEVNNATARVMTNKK
Sequence	RBNS enrichment (R)
GCAGCCGGCCUUGCAGAGCCUCCUCAGCUUGGGGGGCUGGGGACCCAGUCAGCUGAGAGGUCCUCUAGGCUCUACUUAGGCAUAUGUGUACCCAAAAAAAAAAUUUUUUU	0.519
AUUCGCAUGUUUAAUGUGACUUCCCCUCCCCGUCUGUGUUCUAACUUAUUUAUAAAAGGAUGAUGGCUGUAUUUUGAGUUUCUGCUGGAAACUUCCAUAAGGGGCAGCAG	2.65
ACGCCAAAACGUAGGCUUAGUUUGUGUGUUGUCUCUGAGUUUGUCGCUCAUGCGUACAACAGGGUAUGGACUAUCUGUAUGGUGCCCCAUUUUUGGCGGCCCGUAAGUAG	0.405
GCCUACCCAUGGGCCCAAGUUUCUGUGGCUCAUUACAGGGCAUCUGACCCCUGCCACCCAGCAUAGACACACCUCACAGCUGCCCUGCCAUGCAGAGCCCUGGCCGCUGG	0.211
CGGCCCCCAGCACCAAAGCUUAGCCAAGGCAGAGGCGGAUGCCUCUGGAAAUCUAACCAAAGAGUCCCCAGACACCAACGGACCAAAGCUAACCGAGGAAGGAGAUGCCC	0.362
CUGAGACUGUGUUCAGCCCUUUCCCCUAUAAAUUGAUAGGAACUGUGUGUCCACCUUUCCAAAGAAAGGAAAGACAAAAAGAGUUUCCAGAUUGGCCCAGCUGCUGAUAG	0.465
UCAGAGUGUUGUUCCGUUAAUUUUGUAAAUACUGCUCGACUGUAACUCUCACAUGUGACAAAGUAUGGUUUGUUUGGUUGGGUUUUGUUUUUGAGAAUUUUUUUGCCCGU	5.59
AGGUGGUGUAUCGCCACCUGACUCCUUGUUUAAUGACAGAGGUCUGGGAUGUCACAGUCCAAAAGGAAAGUGCCUUUCUCCAUGGCUGGAGUAUGGAGUUUACCUUUGGA	0.211
GAGCUUCAUCUUUCCAGAAUGAGCAAAACACUGUCCAGUCUUUGUUACGAUUUUGUAAUAAAUGUGUACAUUUUUUUUAAAUUUUUGGACAUCACAUGAAUAAAGGUAUG	0.341
AAGACCAAAAGGAAACCAACCGAGUGGGGGUUUGGAGGAGUCGGAAGUAGCAUCUCCAGGCAAGCUGCCCGAGGAAGGGAACAAGUCGCAAUGUUAGAAGAUGCCAUAAA	0.758
AUUUGAAUUGUACCAGCAAUGGACUUUUAAAAAAUUGGAUGUAAAACCAUUCAGGGUGAUUUUUCUUGUCAGUGGACAGUGACGAACAGAGAUUUGAAAUCCCUUACCUC	0.739
UGUAGAGGGAUGUCCCAAGCUUGUUUUCCAAUCAGUGUUAAGCUGUUUGAAACUCUCCUGUGUCUGUGUUUUGUUUGUGCGUGUGUGUGAGAGCACAUCAGUGUGUGCAG	12.3

Set 4
Target: Interferon regulatory factor 3, full length, phosphomimetic (IRF3, Homo sapiens, UniProt Q14653, residues 1-427, S386D/S396D/S398D/S402D/T404D/S405D)
UniProt Q14653, sequence (whole entry, unmodified, looked up): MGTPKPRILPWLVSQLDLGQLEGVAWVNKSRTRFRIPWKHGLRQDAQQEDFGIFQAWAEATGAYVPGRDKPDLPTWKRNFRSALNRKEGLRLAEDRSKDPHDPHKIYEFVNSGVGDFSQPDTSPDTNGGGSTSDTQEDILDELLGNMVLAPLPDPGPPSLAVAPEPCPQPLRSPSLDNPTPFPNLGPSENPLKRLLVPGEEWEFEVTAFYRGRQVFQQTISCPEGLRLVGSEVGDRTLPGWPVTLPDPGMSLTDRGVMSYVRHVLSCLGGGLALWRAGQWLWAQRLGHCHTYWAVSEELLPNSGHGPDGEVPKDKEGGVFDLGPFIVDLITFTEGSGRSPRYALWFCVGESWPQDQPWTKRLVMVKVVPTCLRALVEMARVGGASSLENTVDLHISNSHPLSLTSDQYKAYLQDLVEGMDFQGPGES
Method: protein-binding microarray
Form: double-stranded DNA, one strand shown
Medium: in vitro
Tested at: 2540 nM top
Notes: 60-bp whole probe
Added: salmon DNA 0.4 mg/ml
Baseline: random background probes
Direction: higher = stronger binding
All sequences stand within: GCCTAGCAC … GTCTTGATTCGCTTGACGCTGCTG
Sequence	fitted relative affinity [z-score]
TTAGGTTTCCTTCTCCATTAGTGCTAG	10.2
TCACTTTTCAGTCCCCTACTGTGCTAG	1.94
TACGAACTGGGGTATCGAGACGTGCTA	-0.462
TTTTTTTTCTTTAAAAGTGAGTGCTAG	2.4
TTAGGTATCGAAACTGGGTTAGTGCTA	1.67
GACGGTCTCCCTCTCCTGACGTGCTAG	2.54
AAAATGATTTTTTTCATATAGTGCTAG	0.8
GACGGTTTCCTTATGCTGACGTGCTAG	6.56
TTAGGTCTCCTTATTCTTTAGTGCTAG	2.48
CTGTTAAAGAATTAAGAAGGGTGCTAG	0.349
GACGATATCAGTCTCGAGAGGTGCTAG	0.895
GACGGTCTCCTAATCCTGACGTGCTAG	2.19
ATAGGTTTCCTTTTCCTTTAGTGCTAG	11.9
TTAGAACTGAGTTTCGATGAGTGCTAG	1.02
GACGGACTGGGTATCGCGACGTGCTAG	-0.593
TTAGGACTGGGTTGCGGTTAGTGCTAG	0.191
GACGATATAGGGACTGGAGACGTGCTA	-0.333
TTAGGTCTTGGTCTCGGTTAGTGCTAG	-0.152
TTAGGTTTCCTACTGATTTAGTGCTAG	4.34
TTAGGACCGGACTATCGGTTAGTGCTA	0.258
TTAGAACTGGGTTTCGATTAGTGCTAG	1.99
GACGGTTTCGACACTGTGGACGTGCTA	3
AGACACCCCTTTGGTGCCACGTGCTAG	0.184
TCACAATTCTCTTTTCAACTGTGCTAG	1.7
TTAGGTTTCGGTATCGATTAGTGCTAG	8.6

Repeated from above (set 1):
Sequence	log2 enrichment
UGGCAGGUGGAUUUUGUUUAUUUUUUUAGCUCAUUUCCAGGGGUGGGAAUUUUUUUUUAAUAUGUGUCAUGAAUAAAGUUGUUUUUGAAA	-0.17
AAGUCCUGUGCUACACAUCGUAUGUACCGAAUCGGGGAAAAGGGAAAAGGAAAAGGGAAAGUAUUAUGUUACGCCGUUCGGAUCUGCACU	-0.541
CUUUGGUUGACAGGAAGUUCCUUUUCCAGGCAGGUCCCGUUGCCACCUCCUGCUCACUCAGUCCCGGGCUCUGCCGAGUGGUCCUGGGAA	0.497
UAACUUUAGAGGAGGAUCUGAUGGAUAUGGCAGUGGACGUGGAUUUGGGGAUGGCUAUAAUGGGUAUGGAGGGGGACCUGGAGGUGGCAA	0.738
